Results gathered from unrelated publications.
Organism: Candida albicans

| SMILES | test | test system | setting | scale | MIC |
| --- | --- | --- | --- | --- | --- |
| CC[C@H](C)[C@H](NC(=O)[C@H](C)NC(=O)[C@H](C)NC(=O)[C@H](Cc1ccccc1)NC(=O)[C@H](C)NC(=O)CNC(=O)[C@H](Cc1ccccc1)NC(=O)[C@@H](N)Cc1ccccc1)C(=O)N[C@@H](C)C(=O)N[C@@H](CO)C(=O)N[C@@H](CC(C)C)C(=O)N[C@H](C(=O)N[C@H](C(=O)N1CCC[C@H]1C(=O)N[C@@H](CCCCN)C(=O)N[C@@H](CC(C)C)C(=O)N[C@H](C(=O)N[C@@H](CCC(=O)O)C(=O)N[C@@H](CCCCN)C(=O)N[C@H](C(=O)N[C@@H](CCCCN)C(=O)N[C@@H](CCC(N)=O)C(=O)N[C@@H](C)C(=O)N[C@@H](CCCNC(=N)N)C(N)=O)[C@@H](C)CC)[C@@H](C)CC)[C@@H](C)CC)C(C)C | ATP luminescence | FH2173 | 48 h | – | > 50 µM |
| CC(C)[C@@H](CC(=O)N[C@@H](CCCCN)CC(=O)N[C@H](CC(=O)N[C@H](CC(=O)N[C@@H](CCCCN)CC(=O)N[C@H](CC(=O)N[C@H](CC(=O)N[C@@H](CCCCN)CC(N)=O)C(C)C)C(C)C)C(C)C)C(C)C)NC(=O)C[C@@H](NC(=O)C[C@@H](N)Cc1ccc(O)cc1)C(C)C | broth microdilution | SC5314 | 48 h, pH 7.2, 35 °C | – | 32 µg/mL |
| CC1C(=NOCc2cn(-c3ccccc3)nn2)C(C)C(c2ccc(Br)cc2)OC1c1ccc(Br)cc1 (stereo not drawn) | microbial growth | – | – | – | 25 µg/mL |
| CC[C@H](C)[C@@H]1NC(=O)[C@H](CC(C)C)NC(=O)[C@@H](NC(=O)[C@H](CO)NC(=O)[C@H](CCCNC(=N)N)NC(=O)[C@@H](N)CO)CSSC[C@@H](C(=O)N[C@@H](CCC(N)=O)C(=O)N[C@@H](CCCNC(=N)N)C(=O)N[C@@H](CC(C)C)C(=O)N[C@@H](Cc2ccccc2)C(N)=O)NC(=O)[C@H](C(C)C)NC(=O)[C@H]([C@@H](C)CC)NC(=O)[C@H](CC(C)C)NC(=O)[C@@H](NC(=O)[C@H](CO)NC(=O)[C@H](CCCNC(=N)N)NC(=O)[C@@H](N)CO)CSSC[C@@H](C(=O)N[C@@H](CCC(N)=O)C(=O)N[C@@H](CCCNC(=N)N)C(=O)N[C@@H](CC(C)C)C(=O)N[C@@H](Cc2ccccc2)C(N)=O)NC(=O)[C@H](C(C)C)NC1=O | broth microdilution | ATCC 24433 | – | – | 29 µg/mL |
| CC(C)(C)c1ccc(COc2cc3c(=O)c(C(=O)NCCNCCO)cn(Cc4ccccc4)c3cc2Cl)cc1 | – | ATCC 90028 | – | ≥80% growth inhibition | > 32 µg/mL |
| CC[C@H](C)[C@H](NC(=O)[C@H](CC(C)C)NC(=O)[C@H](C)NC(=O)[C@H](CO)NC(=O)[C@H](CCCNC(=N)N)NC(=O)[C@@H](N)CO)C(=O)N[C@H](C(=O)N[C@@H](Cc1c[nH]cn1)C(=O)N[C@@H](CCC(N)=O)C(=O)N[C@@H](CCCNC(=N)N)C(=O)N[C@@H](CC(C)C)C(=O)N[C@@H](Cc1ccccc1)C(N)=O)C(C)C | broth microdilution | RPMI MOPS-buffered | – | – | > 400 µg/mL |
| CC[C@H](C)[C@H](NC(=O)[C@@H](NC(=O)[C@H](CCCCN)NC(=O)[C@H](CC(=O)O)NC(=O)[C@H](CCCCN)NC(=O)[C@H](Cc1ccccc1)NC(=O)[C@H](Cc1ccccc1)NC(=O)[C@H](CO)NC(=O)[C@H](CCCCN)NC(=O)[C@H](CCSC)NC(=O)[C@H](CCCCN)NC(=O)[C@H](CCCCN)NC(=O)[C@H](Cc1c[nH]c2ccccc12)NC(=O)[C@@H](N)Cc1ccccc1)C(C)C)C(=O)N1CCC[C@H]1C(=O)N[C@@H](CCCCN)C(=O)N[C@H](C(=O)N[C@@H](CCC(N)=O)C(=O)N[C@@H](CCC(N)=O)C(=O)N[C@@H](C)C(=O)N[C@@H](Cc1ccc(O)cc1)C(=O)N[C@@H](CO)C(=O)N[C@@H](CC(C)C)C(=O)N[C@@H](Cc1ccc(O)cc1)C(=O)N[C@@H](CC(N)=O)C(=O)N[C@@H](CCCCN)C(=O)N[C@@H](CC(C)C)C(=O)N[C@@H](CCC(N)=O)C(=O)N[C@@H](Cc1c[nH]cn1)C(=O)N[C@@H](CCCCN)C(=O)N[C@@H](CC(C)C)C(N)=O)C(C)C | ATP luminescence | FH2173 | 48 h | – | > 50 µM |
| CC[C@H](C)[C@H](NC(=O)[C@H](CC(C)C)NC(=O)CCNC(=O)[C@H](CO)NC(=O)[C@H](CCCNC(=N)N)NC(=O)[C@@H](N)CO)C(=O)N[C@H](C(=O)N[C@@H](Cc1c[nH]cn1)C(=O)N[C@@H](CCC(N)=O)C(=O)N[C@@H](CCCNC(=N)N)C(=O)N[C@@H](CC(C)C)C(=O)N[C@@H](Cc1ccccc1)C(N)=O)C(C)C | broth microdilution | RPMI MOPS-buffered | – | – | > 400 µg/mL |
| CC(C)C[C@H](NC(=O)[C@H](C)NC(=O)CNC(=O)[C@@H](NC(=O)[C@@H](NC(=O)[C@H](CCCCN)NC(=O)[C@H](CCCCN)NC(=O)[C@H](CC(C)C)NC(=O)[C@H](CC(C)C)NC(=O)[C@H](CCCCN)NC(=O)[C@H](CC(C)C)NC(=O)[C@H](CC(C)C)NC(=O)[C@@H](N)CCCCN)C(C)C)C(C)C)C(=O)NCC(N)=O | broth microdilution OD530 | ATCC 90028, yeast nitrogen base | 24 h, 35 °C | – | 22 µM |
| CC(C)[C@@H](CC(=O)N[C@@H](CCCNC(=N)N)CC(N)=O)NC(=O)[C@H]1CCCC[C@@H]1NC(=O)C[C@H](CCCNC(=N)N)NC(=O)C[C@@H](NC(=O)[C@H]1CCCC[C@@H]1NC(=O)C[C@H](CCCNC(=N)N)NC(=O)C[C@@H](NC(=O)[C@H]1CCCC[C@@H]1N)C(C)C)C(C)C | broth microdilution | SC5314 | 48 h, pH 7.2, 35 °C | – | 8 µg/mL |
| O=C(NCCNCCO)c1cn(Cc2ccccc2)c2cc(Cl)c(OCc3ccc(Cl)cc3)cc2c1=O | – | ATCC 90028 | – | ≥80% growth inhibition | > 32 µg/mL |
| O=[N+]([O-])[O-].S=c1[nH]cnc2[nH]cnc12.[Ag+].c1ccc(P(c2ccccc2)c2ccccc2)cc1.c1ccc(P(c2ccccc2)c2ccccc2)cc1 | agar dilution | MTCC 227, Mueller Hinton agar | 24 h, 25 °C | – | 50 µg/mL |
| CC[C@H](C)[C@H](NC(=O)[C@H](CC(C)C)NC(=O)[C@H](CC(=O)O)NC(=O)[C@H](CO)NC(=O)[C@H](CCCNC(=N)N)NC(=O)[C@@H](N)CO)C(=O)N[C@H](C(=O)N[C@@H](Cc1c[nH]cn1)C(=O)N[C@@H](CCC(N)=O)C(=O)N[C@@H](CCCNC(=N)N)C(=O)N[C@@H](CC(C)C)C(=O)N[C@@H](Cc1ccccc1)C(N)=O)C(C)C | broth microdilution | RPMI MOPS-buffered | – | – | > 400 µg/mL |
| CC(=O)OCc1cc(-c2nc3ccccc3n(-c3ccc([N+](=O)[O-])cc3[N+](=O)[O-])c2=O)nn1-c1ccccc1 | microbial growth | – | clinical isolate | – | > 500 µg/mL |
| CC[C@H](C)[C@H](NC(=O)CNC(=O)[C@H](CCCCN)NC(=O)[C@H](C)NC(=O)[C@H](CCC(=O)O)NC(=O)[C@H](Cc1ccccc1)NC(=O)[C@H](CO)NC(=O)[C@H](CC(C)C)NC(=O)[C@@H](NC(=O)[C@H](CC(=O)O)NC(=O)[C@H](C)NC(=O)[C@@H](NC(=O)[C@@H](N)C(C)C)[C@@H](C)O)C(C)C)C(=O)N[C@@H](C)C(=O)N[C@H](C(=O)N[C@@H](CC(N)=O)C(=O)N[C@@H](Cc1c[nH]cn1)C(=O)N[C@@H](CO)C(=O)N[C@@H](C)C(=O)N[C@H]1CSSC[C@@H]2NC(=O)[C@H](C(C)C)NC(=O)CNC(=O)[C@H](CC(N)=O)NC(=O)[C@H](CCC(N)=O)NC(=O)[C@H](C)NC(=O)[C@H](CO)NC(=O)CNC(=O)CNC(=O)[C@H](CCCCN)NC(=O)[C@H](CCCCN)NC(=O)[C@H](CCCNC(=N)N)NC(=O)[C@H](CC(C)C)NC(=O)[C@H](C)NC(=O)[C@H]([C@@H](C)CC)NC(=O)[C@H](CSSC[C@@H](C(=O)N[C@@H](CCCNC(=N)N)C(=O)N[C@@H](CC(N)=O)C(=O)O)NC(=O)[C@H](C(C)C)NC2=O)NC(=O)[C@H](Cc2c[nH]cn2)NC(=O)[C@H](CC(C)C)NC(=O)[C@H](C)NC1=O)C(C)C | broth microdilution | ATCC 90028 | 28 °C | – | 12.5 µM |

Repeated from above:
| SMILES | test | test system | setting | scale | MIC |
| --- | --- | --- | --- | --- | --- |
| CC(C)C[C@H](NC(=O)[C@H](C)NC(=O)CNC(=O)[C@@H](NC(=O)[C@@H](NC(=O)[C@H](CCCCN)NC(=O)[C@H](CCCCN)NC(=O)[C@H](CC(C)C)NC(=O)[C@H](CC(C)C)NC(=O)[C@H](CCCCN)NC(=O)[C@H](CC(C)C)NC(=O)[C@H](CC(C)C)NC(=O)[C@@H](N)CCCCN)C(C)C)C(C)C)C(=O)NCC(N)=O | broth microdilution OD530 | ATCC 90028, yeast nitrogen base | 24 h, 35 °C | – | 22 µM |
